Assay results pooled from the literature.
Every numbered part comes from another study and shows a few of its results, in no order.
UniProt O14976, sequence (whole entry, looked up): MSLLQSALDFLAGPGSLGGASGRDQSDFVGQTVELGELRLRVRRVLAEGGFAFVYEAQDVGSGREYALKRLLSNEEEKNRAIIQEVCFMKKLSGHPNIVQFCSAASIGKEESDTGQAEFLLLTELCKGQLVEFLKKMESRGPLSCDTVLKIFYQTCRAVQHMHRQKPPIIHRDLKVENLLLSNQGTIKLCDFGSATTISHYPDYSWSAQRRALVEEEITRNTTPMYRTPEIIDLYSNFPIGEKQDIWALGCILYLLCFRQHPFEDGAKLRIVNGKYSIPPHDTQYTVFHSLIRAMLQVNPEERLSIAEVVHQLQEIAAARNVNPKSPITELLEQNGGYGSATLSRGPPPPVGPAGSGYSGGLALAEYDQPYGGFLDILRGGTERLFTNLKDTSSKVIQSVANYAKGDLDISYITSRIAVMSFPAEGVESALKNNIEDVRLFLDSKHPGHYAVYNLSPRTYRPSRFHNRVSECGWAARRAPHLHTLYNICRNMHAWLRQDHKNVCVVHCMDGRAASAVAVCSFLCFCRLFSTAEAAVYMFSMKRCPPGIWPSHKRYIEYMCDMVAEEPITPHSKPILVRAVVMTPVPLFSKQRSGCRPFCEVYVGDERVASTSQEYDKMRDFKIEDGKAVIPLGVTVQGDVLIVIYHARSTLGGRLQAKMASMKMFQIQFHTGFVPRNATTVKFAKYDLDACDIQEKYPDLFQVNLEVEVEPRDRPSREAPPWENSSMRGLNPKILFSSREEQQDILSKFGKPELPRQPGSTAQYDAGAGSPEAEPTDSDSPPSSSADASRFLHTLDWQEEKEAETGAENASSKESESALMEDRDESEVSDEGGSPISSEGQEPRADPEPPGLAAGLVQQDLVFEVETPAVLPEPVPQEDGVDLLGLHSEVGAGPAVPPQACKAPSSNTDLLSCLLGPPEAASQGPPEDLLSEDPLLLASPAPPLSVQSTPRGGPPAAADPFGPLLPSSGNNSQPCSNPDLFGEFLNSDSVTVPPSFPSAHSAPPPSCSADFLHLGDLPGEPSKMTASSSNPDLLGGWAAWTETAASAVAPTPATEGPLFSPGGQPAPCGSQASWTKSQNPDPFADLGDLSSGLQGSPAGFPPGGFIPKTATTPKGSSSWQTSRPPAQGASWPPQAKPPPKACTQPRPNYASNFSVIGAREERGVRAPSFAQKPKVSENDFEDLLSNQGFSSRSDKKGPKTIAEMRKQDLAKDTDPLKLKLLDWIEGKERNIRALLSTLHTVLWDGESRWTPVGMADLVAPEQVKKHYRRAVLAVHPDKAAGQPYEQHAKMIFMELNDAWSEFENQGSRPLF
UniProt P29317, sequence (whole entry, looked up): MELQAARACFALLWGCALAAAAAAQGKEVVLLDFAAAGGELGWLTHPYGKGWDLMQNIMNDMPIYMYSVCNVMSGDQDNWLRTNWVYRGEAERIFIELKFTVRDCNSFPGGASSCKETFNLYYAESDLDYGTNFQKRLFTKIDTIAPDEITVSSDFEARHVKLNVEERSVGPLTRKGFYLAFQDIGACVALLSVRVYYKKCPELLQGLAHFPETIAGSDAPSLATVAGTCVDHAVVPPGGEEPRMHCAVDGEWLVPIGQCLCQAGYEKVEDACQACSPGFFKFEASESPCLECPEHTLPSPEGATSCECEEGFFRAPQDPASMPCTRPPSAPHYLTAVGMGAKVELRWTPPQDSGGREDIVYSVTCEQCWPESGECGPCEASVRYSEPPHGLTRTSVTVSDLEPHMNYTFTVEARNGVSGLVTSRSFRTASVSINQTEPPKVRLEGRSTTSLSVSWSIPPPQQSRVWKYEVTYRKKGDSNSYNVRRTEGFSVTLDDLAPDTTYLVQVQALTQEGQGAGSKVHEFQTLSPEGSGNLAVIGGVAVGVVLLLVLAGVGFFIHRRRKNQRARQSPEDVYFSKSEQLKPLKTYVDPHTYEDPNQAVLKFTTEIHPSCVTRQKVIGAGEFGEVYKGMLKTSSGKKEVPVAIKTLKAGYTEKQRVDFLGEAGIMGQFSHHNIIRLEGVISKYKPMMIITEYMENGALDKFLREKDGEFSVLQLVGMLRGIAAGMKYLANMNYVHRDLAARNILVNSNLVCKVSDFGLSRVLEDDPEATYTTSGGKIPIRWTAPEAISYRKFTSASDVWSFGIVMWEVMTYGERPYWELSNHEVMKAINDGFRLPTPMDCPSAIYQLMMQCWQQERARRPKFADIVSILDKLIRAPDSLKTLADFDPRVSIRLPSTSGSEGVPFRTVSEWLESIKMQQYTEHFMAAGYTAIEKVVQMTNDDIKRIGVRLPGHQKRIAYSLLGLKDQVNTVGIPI
UniProt Q9NY57, sequence (whole entry, looked up): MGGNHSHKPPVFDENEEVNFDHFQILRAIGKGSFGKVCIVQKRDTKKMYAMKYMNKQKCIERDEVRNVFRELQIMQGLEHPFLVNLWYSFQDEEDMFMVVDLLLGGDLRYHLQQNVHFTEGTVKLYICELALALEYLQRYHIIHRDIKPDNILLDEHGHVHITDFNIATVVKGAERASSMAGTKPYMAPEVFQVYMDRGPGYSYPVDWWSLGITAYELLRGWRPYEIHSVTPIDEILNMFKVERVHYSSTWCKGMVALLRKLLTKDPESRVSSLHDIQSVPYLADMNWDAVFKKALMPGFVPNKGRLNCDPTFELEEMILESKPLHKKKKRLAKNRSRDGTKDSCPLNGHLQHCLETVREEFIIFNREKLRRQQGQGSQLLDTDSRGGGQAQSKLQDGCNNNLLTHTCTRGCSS
UniProt Q02763, sequence (whole entry, looked up): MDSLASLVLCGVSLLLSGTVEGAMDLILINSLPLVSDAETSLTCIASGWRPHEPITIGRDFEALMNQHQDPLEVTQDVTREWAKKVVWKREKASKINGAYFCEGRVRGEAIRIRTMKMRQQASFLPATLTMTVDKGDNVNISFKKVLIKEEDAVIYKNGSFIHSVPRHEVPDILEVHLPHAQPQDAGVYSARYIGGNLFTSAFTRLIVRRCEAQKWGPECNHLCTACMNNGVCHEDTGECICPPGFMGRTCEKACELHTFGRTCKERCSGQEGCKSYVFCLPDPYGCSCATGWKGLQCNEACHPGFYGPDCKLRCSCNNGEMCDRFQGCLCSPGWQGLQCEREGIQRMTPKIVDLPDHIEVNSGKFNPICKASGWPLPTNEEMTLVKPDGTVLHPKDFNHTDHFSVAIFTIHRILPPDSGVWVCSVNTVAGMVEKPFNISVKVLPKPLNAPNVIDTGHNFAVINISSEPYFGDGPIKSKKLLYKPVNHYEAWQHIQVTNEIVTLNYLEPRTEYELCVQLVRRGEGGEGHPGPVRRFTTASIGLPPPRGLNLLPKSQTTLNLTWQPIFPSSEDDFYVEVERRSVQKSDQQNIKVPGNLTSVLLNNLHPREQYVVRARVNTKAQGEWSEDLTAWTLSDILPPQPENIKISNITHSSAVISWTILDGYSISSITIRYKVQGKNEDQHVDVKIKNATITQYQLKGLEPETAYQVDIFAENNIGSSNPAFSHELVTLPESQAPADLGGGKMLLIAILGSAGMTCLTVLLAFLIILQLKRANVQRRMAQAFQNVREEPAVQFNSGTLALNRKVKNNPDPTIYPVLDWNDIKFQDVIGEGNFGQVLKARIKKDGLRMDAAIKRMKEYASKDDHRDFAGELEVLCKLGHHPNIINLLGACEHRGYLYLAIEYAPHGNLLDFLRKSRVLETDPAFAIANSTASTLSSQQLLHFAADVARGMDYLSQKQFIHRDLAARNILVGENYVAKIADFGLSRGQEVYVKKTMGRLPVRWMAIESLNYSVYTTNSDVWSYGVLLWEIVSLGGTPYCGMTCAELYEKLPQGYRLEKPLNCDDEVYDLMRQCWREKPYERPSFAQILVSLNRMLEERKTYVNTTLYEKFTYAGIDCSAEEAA
UniProt P06241, sequence (whole entry, looked up): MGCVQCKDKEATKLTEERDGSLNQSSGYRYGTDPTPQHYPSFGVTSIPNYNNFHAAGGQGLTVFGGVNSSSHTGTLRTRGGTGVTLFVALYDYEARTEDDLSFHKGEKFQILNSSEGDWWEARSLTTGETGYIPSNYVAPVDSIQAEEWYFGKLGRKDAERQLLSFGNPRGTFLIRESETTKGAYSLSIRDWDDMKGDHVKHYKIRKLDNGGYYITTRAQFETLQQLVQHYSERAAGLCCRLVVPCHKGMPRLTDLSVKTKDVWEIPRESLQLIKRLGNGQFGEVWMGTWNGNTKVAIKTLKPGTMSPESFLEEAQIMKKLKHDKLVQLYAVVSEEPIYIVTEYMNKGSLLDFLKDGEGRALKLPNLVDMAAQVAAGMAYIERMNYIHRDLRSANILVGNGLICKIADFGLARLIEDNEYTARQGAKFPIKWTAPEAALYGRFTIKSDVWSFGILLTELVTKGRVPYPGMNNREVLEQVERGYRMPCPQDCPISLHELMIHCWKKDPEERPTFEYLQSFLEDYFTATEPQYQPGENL

Study 1 — technique: competition with immobilised ligand; tested at: 1 µM; measurement: remaining binding
Structure (SMILES): O=C(N[C@H]1CCCCC/C=C\C2C[C@@]2(C(=O)O)NC(=O)[C@@H]2C[C@@H](Oc3ccncc3)CN2C1=O)OC1CCCC1 (stereo partly shown)
target = Angiopoietin-1 receptor (TEK, Homo sapiens, UniProt Q02763); test = cell-free assay; result = 100%
target = Insulin-like growth factor 1 receptor (IGF1R, Homo sapiens, UniProt P08069); test = cell-free assay; result = 96%
target = Ephrin type-A receptor 2 (EPHA2, Homo sapiens, UniProt P29317); test = cell-free assay; result = 71%
target = Cyclin-G-associated kinase (GAK, Homo sapiens, UniProt O14976); test = binding; result = 90%
target = Serine/threonine-protein kinase 32B (STK32B, Homo sapiens, UniProt Q9NY57); test = binding; result = 99%
target = Tyrosine-protein kinase Fyn (FYN, Homo sapiens, UniProt P06241); test = binding; result = 100%

Study 2 — host: mouse, EL4 tumour-bearing; sample: EL4 tumour; dose: dose not given; relative to: vehicle; measurement: log2 fold change
SMILES: CC(=O)N[C@@H](Cc1c[nH]c2ccccc12)C(=O)N[C@@H](CCC(=O)C=[N+]=[N-])C(=O)OC(C)C
test = refers to: galactonate; result = 1.06
test = refers to: serotonin; result = 0.0559
test = refers to: 2-hydroxy-3-methylvalerate; result = 0.572
test = refers to: pseudouridine; result = -0.906

Study 3 — cell line: A-375; tested at: 100 µM; time: 18 h; measurement: viability
Structure (SMILES) = CNC(=O)c1c(C)oc2cc(Oc3ncnc4cc(OC)c(OC)cc34)ccc12; result = 101%
Structure (SMILES) = O=C(O)CCCc1ccccc1; result = 106%
Structure (SMILES) = CC(C)[N+](C)(CCOC(=O)C1c2ccccc2Oc2ccccc21)C(C)C; result = 85.9%
Structure (SMILES) = CN(Cc1ccc(C(C)(C)C)cc1)Cc1cccc2ccccc12; result = 32.2%
Structure (SMILES) = CN(C)CC(c1ccc(O)cc1)C1(O)CCCCC1 (stereo not shown); result = 92.8%

Study 4 — organism: Sarcocystis neurona; read-out: parasite growth; tested at: 10 µM; time: 96 h; notes: second screen; relative to: untreated; measurement: log2 fold change
SMILES = CC(C)Oc1ccc2c(=O)c(-c3ccccc3)coc2c1; result = 2.79
SMILES = CN(C)CCCSc1ccccc1NC(=O)/C=C/c1ccccc1; result = 0.45
SMILES = CC(N)C12CC3CC(CC(C3)C1)C2 (stereo not shown); result = 0.31
SMILES = CN(C)CCc1c[nH]c2ccc(Cn3cncn3)cc12; result = 0.35
SMILES = Nc1cc(N2CCCCC2)nc(N)[n+]1[O-]; result = 0.4
SMILES = CC(C)(C)NC(=O)[C@@H]1CN(Cc2cccnc2)CCN1C[C@@H](O)C[C@@H](Cc1ccccc1)C(=O)N[C@H]1c2ccccc2C[C@H]1O; result = 0.14
SMILES = CC1=NS(=O)(=O)c2cc(Cl)ccc2N1; result = 0.23

Study 5 — read-out: enzyme activity; mode: inhibitor; tested at: 0.5 µM; relative to: control; measurement: remaining activity
Target: Cytoplasmic tyrosine-protein kinase BMX (BMX, Homo sapiens, UniProt P51813)
Residues (P51813 1-675): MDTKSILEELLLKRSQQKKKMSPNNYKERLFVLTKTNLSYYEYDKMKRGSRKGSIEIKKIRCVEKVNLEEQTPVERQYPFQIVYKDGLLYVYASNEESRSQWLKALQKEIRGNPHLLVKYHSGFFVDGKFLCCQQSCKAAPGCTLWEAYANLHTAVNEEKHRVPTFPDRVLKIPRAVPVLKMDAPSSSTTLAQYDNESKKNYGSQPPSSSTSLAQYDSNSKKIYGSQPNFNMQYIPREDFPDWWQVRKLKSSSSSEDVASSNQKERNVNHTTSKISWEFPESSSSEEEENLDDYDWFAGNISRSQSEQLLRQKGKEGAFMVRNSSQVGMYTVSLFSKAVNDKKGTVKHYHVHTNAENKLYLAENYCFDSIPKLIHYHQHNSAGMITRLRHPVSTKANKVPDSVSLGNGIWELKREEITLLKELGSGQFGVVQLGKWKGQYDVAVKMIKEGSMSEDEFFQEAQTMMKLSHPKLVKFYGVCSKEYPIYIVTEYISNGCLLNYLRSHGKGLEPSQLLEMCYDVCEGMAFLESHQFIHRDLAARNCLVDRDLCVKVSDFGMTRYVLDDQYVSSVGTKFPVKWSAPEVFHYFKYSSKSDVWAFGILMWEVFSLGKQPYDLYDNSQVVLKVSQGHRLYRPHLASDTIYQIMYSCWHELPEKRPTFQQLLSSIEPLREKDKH
Compound = COc1ccc(CNC(=O)Nc2ncc([N+](=O)[O-])s2)cc1; result = 90.8%
Compound = O=S(=O)(c1cccc2cnccc12)N1CCCNCC1; result = 104%
Compound = CNC(=O)c1cc(Oc2ccc(NC(=O)Nc3ccc(Cl)c(C(F)(F)F)c3)cc2)ccn1; result = 93.3%
Compound = Cc1nc(-c2ccccc2)c(-c2ccncc2)o1; result = 102%
Compound = O=C1NC(=O)C(c2cn(CCCn3ccnc3)c3ccccc23)=C1Nc1ccccc1; result = 90%
Compound = Nc1ccc2ncnc(NCCc3ccc(Oc4ccccc4)cc3)c2c1; result = 102%
Compound = CN(C)c1ccc(C=C2C(=O)Nc3ccccc32)cc1; result = 92.2%
Compound = CCOC(=O)c1c(C)[nH]c(/C=C2\C(=O)Nc3ccccc32)c1C; result = 93.5%
Compound = COc1ccc(OC)c2c(=S)c3ccccc3[nH]c12; result = 105%
Compound = Cn1sc(=O)n(Cc2ccccc2)c1=O; result = 91.6%
Compound = CO[C@H]1C[C@@H]2CC[C@@H](C)[C@@](O)(O2)C(=O)C(=O)N2CCCC[C@H]2C(=O)O[C@H]([C@H](C)C[C@@H]2CC[C@@H](O)[C@H](OC)C2)CC(=O)[C@H](C)/C=C(\C)[C@@H](O)[C@@H](OC)C(=O)[C@H](C)C[C@H](C)/C=C/C=C/C=C/1C; result = 96.6%
Compound = Nc1ncnc2n[nH]c(Nc3ccc(F)cc3)c12; result = 89.6%
Compound = Cc1ccc(NC(=O)c2ccc(CN3CCN(C)CC3)cc2)cc1Nc1nc(-c2cccnc2)cs1; result = 104%
Compound = Cc1ccc(Nc2nccc(N(C)c3ccc4c(C)n(C)nc4c3)n2)cc1S(N)(=O)=O; result = 93.4%
Compound = N#CC(C#N)=C(N)/C(C#N)=C/c1ccc(O)cc1; result = 80%
Compound = O=C(CCCc1ccc(-c2ccccc2F)cc1)Nc1ccc(O)cc1; result = 99.6%
Compound = COc1cc2ncnc(Nc3ccc(F)c(Cl)c3)c2cc1OCCCN1CCOCC1; result = 102%
Compound = Cc1cccc(-c2[nH]c(C(C)(C)C)nc2-c2ccc3c(c2)OCO3)n1; result = 82%
Compound = OCC(O)CCON=C1C(c2c(O)[nH]c3ccccc23)=Nc2ccccc21 (stereo not shown); result = 40.2%
Compound = COc1cc2ncnc(Nc3ccc(Oc4ccccc4)cc3)c2cc1OC; result = 76.1%
Compound = O=C1NC(=O)C(c2cn(CCCO)c3ncccc23)=C1c1cnccn1; result = 97.8%
Compound = O=C(Nc1cccc(Nc2cc(Nc3cccc(C(F)(F)F)c3)ncn2)c1)C1CC1; result = 93.7%
Compound = Nc1[nH]nc2nc3ccccc3nc12; result = 99.5%
Compound = NCCNc1ncc(C(N)=O)c(Nc2cccc(C(F)(F)F)c2)n1; result = 93%

Study 6 — host: human; sample: microsomes or S9; tested at: 2 µM; time: 0.5 h; measurement: remaining compound
SMILES = CN1CCC(NS(=O)(=O)c2cc(Cl)ccc2Cl)CC1; result = 75.6%
SMILES = CCOC(=O)c1cc(-c2ccc(S(=O)(=O)NC(C)(C)CC)s2)on1; result = 0%
SMILES = CN1CCN(C(=O)c2ccc(-c3ccc4nnc(Cc5cccc6c(=O)[nH]ccc56)n4n3)cc2)CC1; result = 0%
SMILES = O=C(Cn1cnc2c(nnn2-c2cccc(Cl)c2)c1=O)Nc1ccc2c(c1)OCCO2; result = > 99%
SMILES = Cn1cnc2c(Nc3cnn(-c4ccc(Cl)cc4)c3)ncnc21; result = 94.2%
SMILES = c1ccc(Oc2ccc(Nc3ncnc4[nH]ncc34)cc2)cc1; result = 1.51%
